Results collected from several papers.
Protocols differ between the studies behind these lines. ± gives the spread as reported.

Compound	cell line	test	setting	IC50
CCc1nc(C(N)=O)c(Nc2ccc(N3CCC(N4CCN(C(=O)CNc5ccc(S(=O)(=O)NC(=O)c6ccc(N7CCN(CC8=C(c9ccc(Cl)cc9)CC(C)(C)CC8)CC7)cc6Oc6cnc7[nH]ccc7c6)cc5[N+](=O)[O-])CC4)CC3)c(OC)c2)nc1NC1CCOCC1	MOLM-14 FLT3-ITD F691L gilteritinib-resistant	cell viability, alamarBlue	48 h	> 10 µM
Cc1c(C)c2c(c(C)c1O)CCC(C)(COc1ccc(CC3SC(=O)NC3=O)cc1)O2 (stereo not drawn)	THLE-2 cells, Ad-Null transduced	cell viability	no enzyme control	87 ± 12 µM
Cn1ncnc1[C@H]1c2n[nH]c(=O)c3cc(F)cc(c23)N[C@@H]1c1ccc(F)cc1	HD-MB03	cell growth	168 h, single agent	0.0371 µM
Cc1c(C(=O)O)ccc2c3n(nc12)[C@@H]1[C@H](C3)N(CC2CC2)[C@@]2(C(=O)Nc3cc(Cl)ccc32)[C@H]1c1cccc(Cl)c1F	UACC-812	cell growth, alamarBlue	unbound, 4.5% of total	0.0108 µM
Cn1cnc2c(F)c(Nc3ccc(Br)cc3Cl)c(C(=O)NOCCO)cc21	HD-MB03	cell growth	168 h, single agent	> 10 µM
COc1ccc(F)cc1C(=O)NCc1ccc(-c2nn([C@@H](C)C(F)(F)F)c(N)c2C(N)=O)cc1	Rec1	measured: MCP-3	24 h	> 0.1 µM
NC(=O)NO	mouse MDSCs differentiated in vitro	suppressive neutrophil frequency, flow cytometry		18 ± 1.9 µM
CCn1ncc2c1-c1cnc(N)c(c1)O[C@H](C)c1cc(F)ccc1-c1nn(C)nc1C2	A-431, EGFR-amplified	cell viability		> 10 µM
C[C@H](Nc1ccc2c(c1)OCCn1cc(N3C(=O)OC[C@H]3C(F)F)nc1-2)C(N)=O	HGC-27	growth rate inhibition, CellTiter-Glo	120 h	0.219 µM
Cc1cn(-c2cc(NC(=O)c3ccc(C)c(Nc4nccc(-c5cccnc5)n4)c3)cc(C(F)(F)F)c2)cn1	HD-MB03		168 h	inactive
CCOc1nc2cccc(C(=O)O)c2n1Cc1ccc(-c2ccccc2-c2nnn[nH]2)cc1	human skeletal muscle cells	BCKD phosphorylation, AlphaLISA		> 60 µM
Nc1ccn([C@@H]2O[C@H](CO)[C@@H](O)C2(F)F)c(=O)n1	HD-MB03	cell growth	168 h, DMSO	0.0278 µM
CC(C)(C)c1nc(-c2cccc(NS(=O)(=O)c3c(F)cccc3F)c2F)c(-c2ccnc(N)n2)s1	SK-MEL-2 (NRAS Q61R)	ERK phosphorylation, Western blot	1 h	25.1 µM
Cc1c(C)c2c(c(C)c1O)CCC(C)(COc1ccc(CC3SC(=O)NC3=O)cc1)O2 (stereo not drawn)	hepatocytes, iPSC-derived, W2 line	cell viability, RealTime-Glo MT	72 h, differentiation day 23	69 µM
O=C(Oc1ccc2[nH]c3ccccc3c2c1)c1ccc(O)cc1	rat vascular smooth muscle cells	cell proliferation, MTT	added: PDGF-BB	4.76 µM
COc1cc(N2CCC(N3CCN(C)CC3)CC2)ccc1Nc1ncc(Cl)c(Nc2ccccc2S(=O)(=O)C(C)C)n1	Rh3 (alveolar rhabdomyosarcoma)	cell growth	3 days	0.17 ± 0.05 µM
CC(=O)c1c(O)c(C)c(O)c2c1OC1=CC(=O)C(C(C)=O)C(=O)C12C (single isomer, unassigned; (+))	hepatocytes, iPSC-derived, W2 line	cell viability	48 h	26 µM

Compound	cell line	test	setting	IC50
COc1cccc2c1C(=O)c1c(O)c3c(c(O)c1C2=O)C[C@@](O)(C(=O)CO)C[C@@H]3O[C@H]1C[C@H](N)[C@H](O)[C@H](C)O1	HD-MB03	cell growth	168 h, DMSO	0.16 µM
O=C(O)COCC(=O)O	hepatocytes, iPSC-derived, W2 line	cell viability, RealTime-Glo MT	48 h, differentiation day 23	8420 µM
CCCc1nc(C(C)(C)O)c(C(=O)O)n1Cc1ccc(-c2ccccc2-c2nnn[nH]2)cc1	human skeletal muscle cells	BCKD phosphorylation, inhibitor		> 60 µM
CN(C)C/C=C/C(=O)Nc1ccc(C(=O)Nc2cccc(Nc3ncc(Cl)c(-c4c[nH]c5ccccc45)n3)c2)cc1	HD-MB03	cell growth	single agent	0.0131 µM
Cc1[nH]c(/C=C2\C(=O)Nc3ccc(S(=O)(=O)N(C)c4cccc(Cl)c4)cc32)c(C)c1C(=O)N1CCN(C)CC1	Rh3 (alveolar rhabdomyosarcoma)	cell growth	3 days	2.72 ± 0.49 µM
Nc1ccccc1NC(=O)c1ccc(CNc2nccc(-c3cccnc3)n2)cc1	HD-MB03	cell growth	168 h, single agent	0.138 µM
CNc1ncc2cc(-c3cc(NC(=O)NCCC(C)(C)C)c(F)cc3C)c(C)nc2n1	SK-MEL-2 (NRAS Q61R)	ERK phosphorylation, Western blot	1 h	1.22 µM
CCS(=O)(=O)N(C)c1ccc(NC(=O)c2cccc(C(=N)N)c2)cc1OCc1ccc(C(=N)N)cc1	RAW264.7	cell growth, MTT	48 h	> 500 µM
Cc1nc(NC(=O)N2CCC[C@H]2C(N)=O)sc1-c1ccnc(C(C)(C)C(F)(F)F)c1	NCI-H460	growth rate inhibition, CellTiter-Glo	120 h	10 µM
COc1cc(Nc2c(C#N)cnc3cc(OCCCN4CCN(C)CC4)c(OC)cc23)c(Cl)cc1Cl	HD-MB03	cell growth	168 h, DMSO	2.19 µM
CN(c1ccc(NC(=O)c2cccc(C(=N)N)c2)cc1OCc1ccc(C(F)(F)F)cc1)S(=O)(=O)C(F)(F)F	RAW264.7	cell growth, MTT	48 h	> 500 µM
C[C@@H]1CN(C(=O)c2ccc(NC(=O)c3cc(O[C@H](C)c4c(Cl)ccc(F)c4Cl)c(N)nn3)cc2)C[C@H](C)N1	NCI-H3122 (EML4-ALK variant 1)	cell viability		0.0215 µM
N=C(N)Nc1ccc(NC(=O)c2ccc3c(c2)OCO3)cc1OCc1ccccc1C(F)(F)F	RAW264.7	cell growth, MTT	48 h	> 500 µM
C=C1C[C@](OC)([C@H](OCOC/C=C/B2OC(CC)(CC)C(CC)(CC)O2)C(=O)NC[C@@H]2C[C@@H](OC)C(C)(C)[C@@H](C[C@@H](COC)OC)O2)O[C@H](C)[C@@H]1C	RAW264.7	cell viability, sulforhodamine B	48 h, 37 °C, added: 100 µM H2O2	0.0101 ± 0.0002 µM
CC(=O)C1=C(C)Nc2sc(C(=O)c3ccc(Cl)c(Cl)c3)c(N)c2C1c1cccnc1 (stereo not drawn)	HMC3	nuclear intensity, high-content imaging	geometric mean	35.5 µM
CCCCN1C[C@H](O)[C@@H](O)[C@@H](O)[C@H]1CO	sample E patient fibroblasts	Gb3 level lowering, LC-MS/MS, measured: Gb3 d18:1/22:0	216 h	52.8 µM

Excerpt of the above:
Compound	cell line	test	setting	IC50
CC(=O)C1=C(C)Nc2sc(C(=O)c3ccc(Cl)c(Cl)c3)c(N)c2C1c1cccnc1 (stereo not drawn)	HMC3	nuclear intensity, high-content imaging	geometric mean	35.5 µM
COc1cccc2c1C(=O)c1c(O)c3c(c(O)c1C2=O)C[C@@](O)(C(=O)CO)C[C@@H]3O[C@H]1C[C@H](N)[C@H](O)[C@H](C)O1	HD-MB03	cell growth	168 h, DMSO	0.16 µM
C[C@H](Nc1ccc2c(c1)OCCn1cc(N3C(=O)OC[C@H]3C(F)F)nc1-2)C(N)=O	HGC-27	growth rate inhibition, CellTiter-Glo	120 h	0.219 µM
Cc1c(C(=O)O)ccc2c3n(nc12)[C@@H]1[C@H](C3)N(CC2CC2)[C@@]2(C(=O)Nc3cc(Cl)ccc32)[C@H]1c1cccc(Cl)c1F	UACC-812	cell growth, alamarBlue	unbound, 4.5% of total	0.0108 µM
CC(C)(C)c1nc(-c2cccc(NS(=O)(=O)c3c(F)cccc3F)c2F)c(-c2ccnc(N)n2)s1	SK-MEL-2 (NRAS Q61R)	ERK phosphorylation, Western blot	1 h	25.1 µM
